Results from different studies.
Numbered parts are unrelated; each lists some results of a single study.

Sample 1
Target: Prothrombin, mature alpha-thrombin (F2, Homo sapiens, UniProt P00734)
Technique: aptamer microarray, sandwich
Form: DNA with 2'F-ANA
Medium: in vitro
Concentration: 200 nM
Notes: whole 15-mer aptamer, many near background
Added: Cy3 exosite-II aptamer, 400 nM
Reading: higher = stronger binding
For `GGTTGGTGTGGTTGG (2'F-ANA at 1 2 8 9 12 13 14)`, “mean fluorescence intensity” read 62.2 a.u.
Under “mean fluorescence intensity”, `GGTTGGTGTGGTTGG (2'F-ANA at 2 4 5 8 13)` is recorded as 54.2 a.u.
For `GGTTGGTGTGGTTGG (2'F-ANA at 5 6 7 11 13)`, “mean fluorescence intensity” read 640 a.u.

Sample 2
Target: Histone acetyltransferase KAT6A, both winged helices, GST fusion (KAT6A, Homo sapiens, UniProt Q92794, residues 1-181)
Technique: protein binding microarray
Form: double-stranded DNA, one strand shown
Medium: in vitro
Concentration: not given
Notes: 8-mer, flanks averaged, mean of 2 arrays, mostly near background
Relative to: not given
Reading: higher = stronger binding
Construct (chain): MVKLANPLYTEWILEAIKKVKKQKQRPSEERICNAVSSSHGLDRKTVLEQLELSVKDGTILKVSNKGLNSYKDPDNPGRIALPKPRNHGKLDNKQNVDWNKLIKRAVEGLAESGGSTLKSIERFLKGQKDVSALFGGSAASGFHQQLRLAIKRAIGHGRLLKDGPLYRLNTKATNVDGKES
The E-score of `ATTGTGAG` is reported as -0.133.
The E-score of `GCCGACCC` is reported as 0.257.
With `CCTCCTGA` the E-score was -0.128.
For `ACAGTAGC`, the E-score was -0.0182.

Other studies, line by line
`AGCGTACC` gave an E-score of -0.207 (Sal-like protein 4, full length isoform B (SALL4, Homo sapiens, UniProt Q9UJQ4-2, residues 1-616); universal PBM; double-stranded DNA, one strand shown, in vitro; not given, 8-mer, flanks averaged, mean of replicates; higher = stronger binding).
With `PhoQ, residues 284 288 289 292 302 303 TVTVVA` the fold induction was 9.99 (PhoP, residues 12 14 15 18 19 GQAIL (Escherichia coli, UniProt P23836); Sort-seq, item: YFP reporter; E. coli; PhoQ-PhoP variant library, added: 10 µM Mg2+; relative to: high Mg2+ state, higher = stronger signaling).
The E-score of `CGAGCTGC` is reported as -0.212 (Sal-like protein 4, full length isoform A (SALL4, Homo sapiens, UniProt Q9UJQ4, residues 1-1053); universal PBM; double-stranded DNA, one strand shown, in vitro; 600 nM, 8-mer, flanks averaged, mean of replicates; higher = stronger binding).

Repeated from above (other studies, line by line):
With `PhoQ, residues 284 288 289 292 302 303 TVTVVA` the fold induction was 9.99 (PhoP, residues 12 14 15 18 19 GQAIL (Escherichia coli, UniProt P23836); Sort-seq, item: YFP reporter; E. coli; PhoQ-PhoP variant library, added: 10 µM Mg2+; relative to: high Mg2+ state, higher = stronger signaling).
`AGCGTACC` gave an E-score of -0.207 (Sal-like protein 4, full length isoform B (SALL4, Homo sapiens, UniProt Q9UJQ4-2, residues 1-616); universal PBM; double-stranded DNA, one strand shown, in vitro; not given, 8-mer, flanks averaged, mean of replicates; higher = stronger binding).
